Published values collected from several papers.
Lines come from different studies, so protocols differ. “And” joins repeats or separate records; there may be more than shown. Numbers after ± are the reported error.
Target: Acetylcholinesterase (ache, Electrophorus electricus, UniProt O42275)
UniProt O42275, sequence (whole entry, looked up): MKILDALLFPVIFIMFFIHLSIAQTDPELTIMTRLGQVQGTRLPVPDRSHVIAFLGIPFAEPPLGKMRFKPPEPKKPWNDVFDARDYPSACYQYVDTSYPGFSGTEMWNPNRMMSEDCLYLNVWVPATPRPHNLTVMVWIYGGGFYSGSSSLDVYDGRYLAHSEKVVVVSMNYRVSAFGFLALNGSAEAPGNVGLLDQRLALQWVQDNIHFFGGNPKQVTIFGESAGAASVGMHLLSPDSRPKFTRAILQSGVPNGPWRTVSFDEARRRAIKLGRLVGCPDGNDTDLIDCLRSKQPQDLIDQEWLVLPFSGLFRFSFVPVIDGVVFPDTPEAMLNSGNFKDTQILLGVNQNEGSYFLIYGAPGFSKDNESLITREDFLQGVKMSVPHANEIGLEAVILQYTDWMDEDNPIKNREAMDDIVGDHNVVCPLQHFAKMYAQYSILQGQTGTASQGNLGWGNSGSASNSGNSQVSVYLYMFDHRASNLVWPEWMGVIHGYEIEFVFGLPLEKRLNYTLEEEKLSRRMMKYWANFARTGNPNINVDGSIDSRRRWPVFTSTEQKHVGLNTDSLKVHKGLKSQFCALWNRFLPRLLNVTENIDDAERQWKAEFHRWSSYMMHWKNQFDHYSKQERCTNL
Mode: inhibitor

COc1cccc2c1CC1c3c(cc4c(c3-2)OCO4)CCN1C (single isomer, unassigned; (-)) — IC50 (enzyme activity): 11.3 µM
CO/N=C1/c2cc(OC)c(OC)cc2CC1CC1CCN(Cc2ccccc2)CC1 (centres unmarked) — IC50 (enzyme activity, Ellman): 0.144 µM
CCCCc1nc2ccc(/N=N/c3ccc(Cl)cc3)cc2c(-c2ccccc2)c1I — IC50 (enzyme activity, Ellman; pH 7.4): 6.2 µM
O=C(COc1ccc(Sc2ccc(OCC(=O)N/N=C/c3ccc(O)cc3O)cc2)cc1)N/N=C/c1ccc(O)cc1O — IC50 (enzyme activity): 39.1 µM
C/C=C/c1ccc(OCc2ccccc2)c(OC)c1 — IC50 (enzyme activity, Ellman; pH 7.5): 176 µM
COc1ccc([C@@H]2N=NC(NCCc3c[nH]c4ccc(C)cc34)=NC2=O)cc1 — IC50 (enzyme activity, Ellman): 0.636 µM
COc1cc2c(cc1OC)C(=O)C1(C2)C(c2ccccc2Cl)C(Cc2c[nH]c3ccccc23)NC12C(=O)Nc1ccc(OC(F)(F)F)cc12 (centres unmarked) — IC50 (enzyme activity; pH 8): 9.12 µM and < 10 µM
O=S(=O)(Nc1cc(Cl)c(O)c(Cl)c1)c1cccc2cccnc12 — IC50 (enzyme activity, Ellman): 2.34 µM
COc1ccc2[nH]cc(CCNS(=O)(=O)CCc3cn(-c4cnc5ccccc5c4)nn3)c2c1 — IC50 (enzyme activity, Ellman): 0.006 µM
O=C(COc1ccc(Sc2ccc(OCC(=O)N/N=C/c3ccccc3Cl)cc2)cc1)N/N=C/c1ccccc1Cl — IC50 (enzyme activity): 235 µM
C[n+]1ccc2c(c1)[nH]c1ccccc12 — IC50 (enzyme activity): 6.6 µM
Cc1cccc(C[n+]2ccc(NC(=O)CN3C(=O)c4ccccc4C3=O)cc2)c1 — IC50 (enzyme activity, Ellman): 5.4 µM
COc1cc2c(cc1OC)C(=O)C1(C2)C(c2ccc(Cl)cc2Cl)C(Cc2c[nH]c3ccccc23)NC12C(=O)Nc1ccc(OC(F)(F)F)cc12 (centres unmarked) — IC50 (enzyme activity; pH 8): 14.35 ± 0.14 µM
CC(=O)C1=C(C)NC(SCCCSc2nnc(Cc3ccccc3Nc3c(Cl)cccc3Cl)n2-c2ccc(Cl)c(Cl)c2)=NC1c1ccccc1 (centres unmarked) — IC50 (enzyme activity, Ellman): 0.47 µM
O=CN1CCc2cc3c(c4c2C1Cc1ccccc1-4)OCO3 (single isomer, unassigned; (-)) — IC50 (enzyme activity): 140 µM
COc1cc2c(cc1OC)C(=O)C(C(=O)CC1CCN(Cc3ccccc3)CC1)C2 (centres unmarked) — IC50 (enzyme activity, Ellman): 0.088 µM
COc1ccc2cc(/C=N/C3CCN(Cc4ccccc4)CC3)ccc2c1 — IC50: > 10 µM
O=C(CN1C(=O)c2ccccc2C1=O)Nc1cc[n+](Cc2cccc(F)c2)cc1 — IC50 (enzyme activity, Ellman): 2.7 µM
CCCCc1nc2ccc(/N=N/c3ccc(Br)cc3)cc2c(-c2ccccc2)c1I — IC50 (enzyme activity, Ellman; pH 7.4): 7 µM
COc1ccc(CNc2c(NC3CCN(Cc4ccccc4)CC3)c(=O)c2=O)cc1 — IC50 (enzyme activity, Ellman): 7 µM
COc1cccc2c1C(O)C1c3c(cc4c(c3-2)OCO4)CCN1C (single isomer, unassigned; (-)) — IC50 (enzyme activity): 6.12 µM
COc1cc2c(cc1OC)C(=O)C1(C2)C(c2ccccc2C)C(Cc2ccccc2)NC12C(=O)Nc1ccc(OC(F)(F)F)cc12 (centres unmarked) — IC50 (enzyme activity; pH 8): > 10 µM and 12.5 µM
Cc1ccc(-c2nc3ccc(/N=N/c4ccc(Cl)cc4)cc3c(-c3ccccc3)c2I)cc1 — IC50 (enzyme activity, Ellman; pH 7.4): 11.9 µM
COc1cc2c(cc1OC)C(=O)C1(C2)C(c2ccc(Cl)cc2)C(Cc2c[nH]c3ccccc23)NC12C(=O)Nc1ccc(OC(F)(F)F)cc12 (centres unmarked) — IC50 (enzyme activity; pH 8): < 10 µM and 7.22 µM
CCCCCc1nc2ccc(/N=N/c3ccc([N+](=O)[O-])cc3)cc2c(-c2ccccc2)c1I — IC50 (enzyme activity, Ellman; pH 7.4): 16.8 µM
COc1ccc(-c2c(C#N)c(N)nc3c2CCc2nc4c(cc2-3)c(C)nn4-c2ccccc2)cc1 — IC50 (enzyme activity, Ellman): 53.3 µM
CC(C)c1ccc(/C=N/NC(=O)COc2ccc(Sc3ccc(OCC(=O)N/N=C/c4ccc(C(C)C)cc4)cc3)cc2)cc1 — IC50 (enzyme activity): 193 µM
C=CCc1ccc(OCC=C(C)C)c(OC)c1 — IC50 (enzyme activity, Ellman; pH 7.5): 141 µM
COc1cc2c(cc1OC)C(=O)C1(C2)C(c2ccccc2OC)C(Cc2c[nH]c3ccccc23)NC12C(=O)Nc1ccc(OC(F)(F)F)cc12 (centres unmarked) — IC50 (enzyme activity; pH 8): 2.48 ± 0.22 µM
O=C(COc1ccc(Sc2ccc(OCC(=O)N/N=C/c3ccccc3O)cc2)cc1)N/N=C/c1ccccc1O — IC50 (enzyme activity): 37.7 µM
COc1cc(O)cc(-c2cc3ccc(O)c(C/C=C(\C)CCC=C(C)C)c3o2)c1CC=C(C)C — IC50 (enzyme activity): > 200 µM
Cc1ccc(Nc2c(NC3CCN(Cc4ccccc4)CC3)c(=O)c2=O)cc1 — IC50 (enzyme activity, Ellman): 8.3 µM

Repeated from above:
COc1cc(O)cc(-c2cc3ccc(O)c(C/C=C(\C)CCC=C(C)C)c3o2)c1CC=C(C)C — IC50 (enzyme activity): > 200 µM
CC(C)c1ccc(/C=N/NC(=O)COc2ccc(Sc3ccc(OCC(=O)N/N=C/c4ccc(C(C)C)cc4)cc3)cc2)cc1 — IC50 (enzyme activity): 193 µM
COc1ccc(-c2c(C#N)c(N)nc3c2CCc2nc4c(cc2-3)c(C)nn4-c2ccccc2)cc1 — IC50 (enzyme activity, Ellman): 53.3 µM
COc1ccc2[nH]cc(CCNS(=O)(=O)CCc3cn(-c4cnc5ccccc5c4)nn3)c2c1 — IC50 (enzyme activity, Ellman): 0.006 µM
